Results collected from several papers.
Lines come from different studies, so protocols differ.

COc1nnc2ccc(N3CCC(c4ccc(OCCN5CCN(C)C(=O)[C@H]5C)cc4)CC3)nn12
grade ≥3 TEAE (relapsed/refractory solid tumour or lymphoma patients; oral, dose not given): 55.9%

Cc1cc(C)c(CNC(=O)c2cc(Cl)c3c(c2C)O[C@@](C)([C@H]2CC[C@H](N(C)C)CC2)O3)c(=O)[nH]1
grade 5 any TEAE incidence (relapsed/refractory NHL patients; dose not given, treatment-related TEAEs, safety set): 0%

COc1ccc(-c2c(-c3ccc(C#N)c(F)c3)nc(N3CCC(N)CC3)n(C)c2=O)cc1F
grade 3-4 TRAE incidence (measured: ≥1 grade 3-4 TRAE; relapsed/refractory MZL patients; oral, 60 mg, dose expansion): 33%

Nc1nc2cc(-c3ccc4ncc(C(=O)N5CCOCC5)n4c3)ccc2o1
grade ≥3 drug-related AEs (advanced solid tumour patients; dose not given; relative to: patients): 22%

CC(=O)c1c(C)c2cnc(Nc3ccc(C4CCN(CCS(C)(=O)=O)CC4)cn3)nc2n(C2CCCC2)c1=O
grade 3/4 leukopenia TEAE (HR+/HER2- advanced breast cancer patients; oral, dose not given): 36.8 % patients

Cc1ncc2n1-c1ccc(Cl)cc1C(c1ccccc1F)=NC2
grade 3 adverse events (healthy volunteers; oral, 5 mg, together with: momelotinib 200 mg): 0%

CC(C)n1c(C2CCNCC2)nc2c([N+](=O)[O-])c(Br)c(Br)cc21
grade ≥3 adverse events (measured: Leukocytosis; AML patients; dose not given, all doses): 12%

CCN1[C@@H](C(=O)NC23CCC(C(=O)O)(CC2)CC3)[C@H](c2cccc(Cl)c2F)[C@]2(C(=O)Nc3cc(Cl)ccc32)C12CCCCC2
grade ≥3 adverse event incidence (patients with advanced solid tumours; oral, 100 mg): 27.3%

COc1cc2c(Oc3ccc4[nH]c(C)cc4c3F)ccnc2cc1OCC1(N)CC1
grade 3 bone pain (paediatric refractory sarcoma patients; 12 mg): 0%

N[C@@H]1c2ccccc2OC12CCN(c1cnc3c(N4CCCc5ncccc54)n[nH]c3n1)CC2
grade ≥3 peripheral oedema TEAE (patients advanced metastatic solid tumours; oral, 60 mg once daily, pooled cohort): 0%

CCN(Cc1nc2c(N)nc3cc(-c4cc[nH]n4)ccc3c2[nH]1)C(C)=O
grade 2 Chills TRAE (cancer patients; intratumoral, dose not given, monotherapy): 0

NC(=O)[C@H]1CCN(c2ncnc(N)c2F)C[C@@H]1N1CCC[C@@H](Nc2cc(Cl)cc(C(F)(F)F)c2)C1=O
grade ≥3 leukopenia (B-cell malignancy patients; oral, 41 mg twice daily, dose): 10%

For quick reference, copied from above:
NC(=O)[C@H]1CCN(c2ncnc(N)c2F)C[C@@H]1N1CCC[C@@H](Nc2cc(Cl)cc(C(F)(F)F)c2)C1=O
grade ≥3 leukopenia (B-cell malignancy patients; oral, 41 mg twice daily, dose): 10%

Cc1ncc2n1-c1ccc(Cl)cc1C(c1ccccc1F)=NC2
grade 3 adverse events (healthy volunteers; oral, 5 mg, together with: momelotinib 200 mg): 0%
